Published values pooled from the literature.
Numbered parts are unrelated; each lists some results of a single study. “And” joins repeats or separate records; there may be more than shown.
Chain of UniProt Q9QZL0 (whole entry, unmodified, looked up): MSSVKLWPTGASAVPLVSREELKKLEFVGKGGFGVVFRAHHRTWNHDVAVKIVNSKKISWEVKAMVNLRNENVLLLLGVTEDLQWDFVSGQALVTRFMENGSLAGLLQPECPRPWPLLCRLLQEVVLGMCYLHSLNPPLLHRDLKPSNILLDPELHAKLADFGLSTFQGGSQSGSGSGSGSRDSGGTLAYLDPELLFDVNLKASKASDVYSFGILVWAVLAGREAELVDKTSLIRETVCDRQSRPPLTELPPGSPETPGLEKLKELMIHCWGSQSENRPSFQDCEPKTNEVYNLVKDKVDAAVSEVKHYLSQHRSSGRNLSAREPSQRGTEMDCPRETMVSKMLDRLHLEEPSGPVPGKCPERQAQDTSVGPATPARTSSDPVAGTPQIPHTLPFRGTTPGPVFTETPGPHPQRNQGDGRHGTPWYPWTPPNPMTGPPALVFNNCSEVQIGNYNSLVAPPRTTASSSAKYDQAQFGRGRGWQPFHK
Chain of UniProt Q96RR4 (whole entry, looked up): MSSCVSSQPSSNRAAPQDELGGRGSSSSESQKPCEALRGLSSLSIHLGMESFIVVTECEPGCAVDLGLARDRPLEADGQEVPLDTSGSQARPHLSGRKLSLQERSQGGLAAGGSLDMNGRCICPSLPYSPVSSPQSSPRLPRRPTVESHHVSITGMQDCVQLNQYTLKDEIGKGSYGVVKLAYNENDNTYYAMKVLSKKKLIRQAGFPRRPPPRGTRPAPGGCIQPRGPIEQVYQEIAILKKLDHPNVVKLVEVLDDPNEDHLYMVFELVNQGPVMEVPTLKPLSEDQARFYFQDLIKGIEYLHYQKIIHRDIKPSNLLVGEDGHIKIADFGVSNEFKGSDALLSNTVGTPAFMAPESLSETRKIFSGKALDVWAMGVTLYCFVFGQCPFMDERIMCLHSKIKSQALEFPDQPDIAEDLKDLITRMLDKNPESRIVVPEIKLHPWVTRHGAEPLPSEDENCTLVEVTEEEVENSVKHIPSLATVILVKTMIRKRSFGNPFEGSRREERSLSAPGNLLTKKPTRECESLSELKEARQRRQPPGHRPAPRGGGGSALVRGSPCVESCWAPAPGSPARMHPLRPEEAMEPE
Chain of UniProt P51812 (whole entry, looked up): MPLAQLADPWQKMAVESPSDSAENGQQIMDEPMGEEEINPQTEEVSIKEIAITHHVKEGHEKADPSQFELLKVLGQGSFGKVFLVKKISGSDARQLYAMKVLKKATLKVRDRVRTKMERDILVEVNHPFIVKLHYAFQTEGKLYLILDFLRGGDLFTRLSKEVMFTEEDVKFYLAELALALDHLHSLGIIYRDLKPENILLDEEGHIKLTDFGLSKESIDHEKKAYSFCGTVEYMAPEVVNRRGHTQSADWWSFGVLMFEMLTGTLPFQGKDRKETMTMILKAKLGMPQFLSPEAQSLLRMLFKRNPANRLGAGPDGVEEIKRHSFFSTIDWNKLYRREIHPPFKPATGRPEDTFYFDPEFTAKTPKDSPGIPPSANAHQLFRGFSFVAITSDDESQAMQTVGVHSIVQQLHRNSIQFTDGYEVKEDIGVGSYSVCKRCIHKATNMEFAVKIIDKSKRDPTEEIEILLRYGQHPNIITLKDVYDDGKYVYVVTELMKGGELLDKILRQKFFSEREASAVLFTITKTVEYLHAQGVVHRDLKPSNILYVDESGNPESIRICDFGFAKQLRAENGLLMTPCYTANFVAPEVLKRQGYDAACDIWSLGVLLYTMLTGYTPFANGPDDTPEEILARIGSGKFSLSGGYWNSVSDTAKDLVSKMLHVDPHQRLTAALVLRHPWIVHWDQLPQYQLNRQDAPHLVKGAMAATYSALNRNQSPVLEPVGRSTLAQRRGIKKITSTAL
Chain of UniProt Q16566 (whole entry, looked up): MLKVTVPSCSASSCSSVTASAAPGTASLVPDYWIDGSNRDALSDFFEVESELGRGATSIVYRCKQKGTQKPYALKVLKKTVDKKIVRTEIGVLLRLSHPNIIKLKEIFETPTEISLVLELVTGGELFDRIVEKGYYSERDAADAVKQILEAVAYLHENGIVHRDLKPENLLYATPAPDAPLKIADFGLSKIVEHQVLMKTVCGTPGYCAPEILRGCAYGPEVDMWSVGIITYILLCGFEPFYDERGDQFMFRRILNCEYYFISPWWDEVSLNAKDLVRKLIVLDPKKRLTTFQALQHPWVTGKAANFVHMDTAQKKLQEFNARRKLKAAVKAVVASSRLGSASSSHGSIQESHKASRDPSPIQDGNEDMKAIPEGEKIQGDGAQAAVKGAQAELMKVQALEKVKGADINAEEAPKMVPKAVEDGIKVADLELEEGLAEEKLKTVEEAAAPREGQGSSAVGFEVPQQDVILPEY
Chain of UniProt P21709 (whole entry, looked up): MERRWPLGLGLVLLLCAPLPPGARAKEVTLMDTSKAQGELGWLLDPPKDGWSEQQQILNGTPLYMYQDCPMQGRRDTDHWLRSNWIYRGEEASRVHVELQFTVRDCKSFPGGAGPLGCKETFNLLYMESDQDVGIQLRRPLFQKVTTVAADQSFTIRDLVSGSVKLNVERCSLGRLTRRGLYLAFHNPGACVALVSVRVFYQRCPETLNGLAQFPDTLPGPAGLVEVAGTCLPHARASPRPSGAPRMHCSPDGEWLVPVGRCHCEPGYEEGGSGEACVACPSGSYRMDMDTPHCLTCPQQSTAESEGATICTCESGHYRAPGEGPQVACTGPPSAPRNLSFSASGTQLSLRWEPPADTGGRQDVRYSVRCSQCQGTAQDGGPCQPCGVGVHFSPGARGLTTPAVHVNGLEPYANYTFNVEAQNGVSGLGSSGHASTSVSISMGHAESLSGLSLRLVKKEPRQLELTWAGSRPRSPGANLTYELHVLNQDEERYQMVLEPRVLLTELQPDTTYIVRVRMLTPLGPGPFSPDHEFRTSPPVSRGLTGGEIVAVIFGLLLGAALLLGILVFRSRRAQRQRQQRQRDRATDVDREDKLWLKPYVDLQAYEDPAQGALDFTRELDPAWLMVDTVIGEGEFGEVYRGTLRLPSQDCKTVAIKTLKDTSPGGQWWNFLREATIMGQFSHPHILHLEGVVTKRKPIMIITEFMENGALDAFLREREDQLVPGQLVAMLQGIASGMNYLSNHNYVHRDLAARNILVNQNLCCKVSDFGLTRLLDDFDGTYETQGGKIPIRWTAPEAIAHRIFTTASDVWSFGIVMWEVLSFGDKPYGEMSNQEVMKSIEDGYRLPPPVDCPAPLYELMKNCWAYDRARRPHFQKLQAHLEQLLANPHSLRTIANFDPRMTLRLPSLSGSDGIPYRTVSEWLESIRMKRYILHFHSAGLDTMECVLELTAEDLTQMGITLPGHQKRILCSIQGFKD
Chain of UniProt Q9UPZ9 (whole entry, looked up): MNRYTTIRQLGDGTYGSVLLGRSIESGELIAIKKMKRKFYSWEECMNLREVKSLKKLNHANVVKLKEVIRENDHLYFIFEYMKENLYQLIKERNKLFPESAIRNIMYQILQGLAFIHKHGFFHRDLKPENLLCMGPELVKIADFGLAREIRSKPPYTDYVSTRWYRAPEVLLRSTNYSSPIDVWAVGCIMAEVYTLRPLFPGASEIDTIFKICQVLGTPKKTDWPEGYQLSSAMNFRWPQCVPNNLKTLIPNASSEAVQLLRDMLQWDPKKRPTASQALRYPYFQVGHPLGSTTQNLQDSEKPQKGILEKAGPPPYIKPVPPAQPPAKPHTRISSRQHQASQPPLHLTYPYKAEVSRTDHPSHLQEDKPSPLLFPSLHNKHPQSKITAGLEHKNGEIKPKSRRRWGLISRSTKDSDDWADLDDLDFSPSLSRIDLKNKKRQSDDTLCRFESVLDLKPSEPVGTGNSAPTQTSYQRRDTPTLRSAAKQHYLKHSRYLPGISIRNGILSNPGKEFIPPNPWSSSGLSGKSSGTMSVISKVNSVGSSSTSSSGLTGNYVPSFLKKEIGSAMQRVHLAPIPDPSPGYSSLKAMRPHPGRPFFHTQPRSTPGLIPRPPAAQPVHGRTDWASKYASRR

Series 1
Structure (SMILES): COc1cc(C(=O)N2CCC(N3CCN(C)CC3)CC2)ccc1Nc1ncc2c(n1)N(C)c1ccccc1C(=O)N2C
The inhibition was -0.7% (CSK mouse; KiNativ profiling; mouse brain lysate; 1 µM, activation loop site, together with: ADP acyl phosphate probe).
The inhibition was -8.8% (ILK (mouse); probe labelling, KiNativ, measured: WQGNDIVVkVLK peptide, LYS1 site; brain tissue lysate (mouse); 0.1 µM, together with: ADP acyl-phosphate probe).
For MYLK; KiNativ ATP probe; mouse brain lysate; 0.1 µM, LYS2 site: inhibition read -12.3%.
The inhibition was 2.7% (human PBMC; probe labeling, inhibitor, KiNativ profiling, measured: DVkPDNMLLDK; cell lysate; concentration not given, LYS2 site, together with: ATP acyl-phosphate probe 0.1 µM).
It gave 34.5% for inhibition (RSK1 domain 2 (mouse); probe labelling, inhibitor, KiNativ ActivX ADP probe; mouse brain lysate; 1 µM, Lys1 site peptide).
The inhibition was 9.8% (RSK3 domain 1 (mouse); probe labelling, inhibitor, KiNativ ActivX ADP probe; mouse brain lysate; 0.1 µM, Lys1 site peptide).
mouse PIP5K3; probe labelling, KiNativ ADP probe; mouse brain lysate; 1 µM, ATP site — inhibition: 25.5%.
It gave -57.3% for inhibition (OSR1 (mouse); KiNativ ADP probe; mouse brain tissue; 0.1 µM, probe site LYS2).

Series 2 — observed: cell-free assay; technique: competition with immobilised ligand; concentration: 1 µM
Structure (SMILES): CN([C@@H]1CCc2c(CC(=O)O)c3cc(S(C)(=O)=O)ccc3n2C1)S(=O)(=O)c1ccc(F)cc1
DSTYK (Homo sapiens, UniProt Q6XUX3) — remaining binding: 77%.
It gave 81% for remaining binding (Ribosomal protein S6 kinase alpha-3, C-terminal kinase domain (RPS6KA3, Homo sapiens, UniProt P51812)).
EPHA1 (Homo sapiens, UniProt P21709) — remaining binding: 88%.
It gave 93% for remaining binding (CILK1 (Homo sapiens, UniProt Q9UPZ9)).
The remaining binding was 82% (Tyrosine-protein kinase ABL1, phosphorylated (ABL1, Homo sapiens, UniProt P00519, Y253F)).
For FLT3 (Homo sapiens, UniProt P36888, ITD): remaining binding read 82%.
It gave 100% for remaining binding (CAMKK2 (Homo sapiens, UniProt Q96RR4)).
CAMK4 (Homo sapiens, UniProt Q16566) — remaining binding: 87%.

Other studies, line by line
The parasite load of CCCSc1ccc2[nH]c(NC(=O)OC)nc2c1 is reported as 102% (Plasmodium berghei; Huh-7, liver stage; 10 µM, 24 h; relative to: control).
The elution volume of CC(C)S(=O)(=O)c1ccc2nccc(Nc3ccc4scnc4c3)c2c1 is reported as 14.9 mL and 14.7 mL (Ripk3 (Mus musculus, UniProt Q9QZL0, C111A); kinase domain dimerization, size-exclusion chromatography; Superdex 200 column; concentration not given).

Some of these lines once more (series 1):
For MYLK; KiNativ ATP probe; mouse brain lysate; 0.1 µM, LYS2 site: inhibition read -12.3%.
